{"data": "Assay results from different studies", "note": "Protocols differ between the studies behind these lines. Numbers after ± are the reported error.", "sequence of UniProt Q96SW2 (whole entry, looked up)": "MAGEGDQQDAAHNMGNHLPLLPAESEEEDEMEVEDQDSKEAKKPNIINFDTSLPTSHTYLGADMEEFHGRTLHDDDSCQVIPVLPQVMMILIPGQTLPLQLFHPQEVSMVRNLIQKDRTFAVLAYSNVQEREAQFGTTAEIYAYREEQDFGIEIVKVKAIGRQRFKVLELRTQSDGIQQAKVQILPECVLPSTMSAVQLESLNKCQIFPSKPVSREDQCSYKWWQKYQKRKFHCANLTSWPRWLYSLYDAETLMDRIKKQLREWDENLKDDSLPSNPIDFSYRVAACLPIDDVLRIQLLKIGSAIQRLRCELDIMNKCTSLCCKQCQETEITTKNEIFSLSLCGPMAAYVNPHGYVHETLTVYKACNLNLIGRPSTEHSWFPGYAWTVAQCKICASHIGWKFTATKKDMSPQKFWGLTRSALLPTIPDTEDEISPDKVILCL", "sequence of UniProt P48729 (whole entry, looked up)": "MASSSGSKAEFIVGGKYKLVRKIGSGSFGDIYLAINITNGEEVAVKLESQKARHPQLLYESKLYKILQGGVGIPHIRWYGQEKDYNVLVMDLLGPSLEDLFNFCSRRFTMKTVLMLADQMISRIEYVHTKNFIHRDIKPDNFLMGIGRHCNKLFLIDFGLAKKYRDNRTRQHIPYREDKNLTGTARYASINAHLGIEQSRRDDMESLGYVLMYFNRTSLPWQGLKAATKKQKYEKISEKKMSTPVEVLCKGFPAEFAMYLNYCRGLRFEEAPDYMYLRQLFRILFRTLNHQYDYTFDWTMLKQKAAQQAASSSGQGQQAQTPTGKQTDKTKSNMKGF", "sequence of UniProt Q8BUW1 (whole entry, looked up)": "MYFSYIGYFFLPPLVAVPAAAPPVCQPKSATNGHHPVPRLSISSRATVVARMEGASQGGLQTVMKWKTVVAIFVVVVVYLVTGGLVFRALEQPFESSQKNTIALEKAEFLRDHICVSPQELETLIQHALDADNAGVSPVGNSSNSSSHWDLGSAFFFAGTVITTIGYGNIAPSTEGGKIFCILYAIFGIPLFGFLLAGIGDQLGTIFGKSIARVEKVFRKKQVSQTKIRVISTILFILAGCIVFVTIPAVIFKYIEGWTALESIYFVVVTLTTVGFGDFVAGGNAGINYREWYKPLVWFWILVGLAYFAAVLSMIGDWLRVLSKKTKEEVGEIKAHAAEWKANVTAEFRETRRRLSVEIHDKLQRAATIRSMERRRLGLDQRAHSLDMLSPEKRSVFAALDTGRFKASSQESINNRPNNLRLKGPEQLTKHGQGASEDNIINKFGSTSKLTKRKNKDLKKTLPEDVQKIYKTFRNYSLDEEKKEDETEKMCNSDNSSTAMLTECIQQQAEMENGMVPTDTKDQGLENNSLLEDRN", "sequence of UniProt P52699 (whole entry, looked up)": "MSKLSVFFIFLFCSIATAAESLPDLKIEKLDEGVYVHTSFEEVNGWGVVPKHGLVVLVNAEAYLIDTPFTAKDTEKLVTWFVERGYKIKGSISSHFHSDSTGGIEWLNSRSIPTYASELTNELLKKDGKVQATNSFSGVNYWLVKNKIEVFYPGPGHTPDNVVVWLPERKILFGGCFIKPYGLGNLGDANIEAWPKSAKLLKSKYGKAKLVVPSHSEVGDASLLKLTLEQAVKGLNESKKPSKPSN", "sequence of UniProt P28907 (whole entry, looked up)": "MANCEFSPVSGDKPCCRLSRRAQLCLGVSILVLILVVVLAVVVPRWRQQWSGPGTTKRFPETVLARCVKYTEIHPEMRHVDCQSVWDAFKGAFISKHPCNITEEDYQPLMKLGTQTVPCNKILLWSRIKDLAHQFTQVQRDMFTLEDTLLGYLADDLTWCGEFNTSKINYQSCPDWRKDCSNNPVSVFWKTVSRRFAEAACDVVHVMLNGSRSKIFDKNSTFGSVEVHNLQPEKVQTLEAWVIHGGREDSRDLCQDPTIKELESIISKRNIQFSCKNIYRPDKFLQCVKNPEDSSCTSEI", "sequence of UniProt P16257 (whole entry, looked up)": "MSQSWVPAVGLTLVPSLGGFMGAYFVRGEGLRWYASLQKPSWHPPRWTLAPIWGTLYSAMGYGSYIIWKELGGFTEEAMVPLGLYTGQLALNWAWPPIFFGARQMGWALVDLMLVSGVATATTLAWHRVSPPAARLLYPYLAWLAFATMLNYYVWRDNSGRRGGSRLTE", "sequence of UniProt Q6W5P4 (whole entry, looked up)": "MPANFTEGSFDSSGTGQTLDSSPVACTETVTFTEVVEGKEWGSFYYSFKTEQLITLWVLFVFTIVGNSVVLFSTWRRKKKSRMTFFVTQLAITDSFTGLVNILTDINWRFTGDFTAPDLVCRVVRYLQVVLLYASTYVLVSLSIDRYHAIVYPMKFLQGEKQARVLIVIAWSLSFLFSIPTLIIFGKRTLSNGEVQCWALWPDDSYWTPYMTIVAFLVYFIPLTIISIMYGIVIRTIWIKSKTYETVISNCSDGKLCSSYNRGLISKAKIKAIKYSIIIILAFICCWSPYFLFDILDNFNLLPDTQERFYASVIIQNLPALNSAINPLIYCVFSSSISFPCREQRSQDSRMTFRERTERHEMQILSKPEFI", "sequence of UniProt P05067 (whole entry, looked up)": "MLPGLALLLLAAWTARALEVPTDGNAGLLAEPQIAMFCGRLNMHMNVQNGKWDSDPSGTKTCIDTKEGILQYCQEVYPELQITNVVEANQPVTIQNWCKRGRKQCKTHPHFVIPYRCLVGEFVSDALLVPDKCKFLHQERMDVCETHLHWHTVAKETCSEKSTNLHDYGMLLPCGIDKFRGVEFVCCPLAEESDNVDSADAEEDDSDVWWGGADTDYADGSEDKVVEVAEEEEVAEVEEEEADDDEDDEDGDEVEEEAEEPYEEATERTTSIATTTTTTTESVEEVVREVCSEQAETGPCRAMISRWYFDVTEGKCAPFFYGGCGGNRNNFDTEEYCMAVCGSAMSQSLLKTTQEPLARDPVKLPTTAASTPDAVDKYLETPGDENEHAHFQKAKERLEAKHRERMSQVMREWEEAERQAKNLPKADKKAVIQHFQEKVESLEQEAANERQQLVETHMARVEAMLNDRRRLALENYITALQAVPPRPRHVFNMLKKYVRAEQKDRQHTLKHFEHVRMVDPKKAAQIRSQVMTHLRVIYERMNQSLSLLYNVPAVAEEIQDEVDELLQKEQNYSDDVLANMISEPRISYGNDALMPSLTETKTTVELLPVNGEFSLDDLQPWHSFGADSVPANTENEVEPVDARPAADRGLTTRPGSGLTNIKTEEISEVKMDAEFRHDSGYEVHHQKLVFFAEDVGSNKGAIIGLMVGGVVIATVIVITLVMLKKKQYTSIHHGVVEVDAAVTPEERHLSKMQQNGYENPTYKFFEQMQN"}
{"Structure (SMILES)": "Oc1c(C(Nc2nc3ccccc3s2)c2cccc(OCc3ccccc3)c2)ccc2cccnc12 (centres unmarked)", "target": "Genome polyprotein, NS2B-NS3 protease (Dengue virus type 2, UniProt P14340)", "assay": "substrate, tetrapeptide cleavage", "conditions": "5 µM, 37 °C, with: 40 µM ZnCl2", "quantity": "kcat", "result": "0.101 ± 0.0043 s⁻¹"}
{"Structure (SMILES)": "CC(=O)NCCN(CC(=O)NCCN(CC(=O)NCCN(CC(=O)NCCC(N)=O)C(=O)C[C@@H](N)CCCNC(=N)N)C(=O)C[C@@H](N)CCCNC(=N)N)C(=O)C[C@@H](N)Cc1ccccc1", "target": "HIV-1 TAR RNA", "quantity": "non-electrostatic TΔS°", "result": "-3.42 ± 0.598 kcal/mol"}
{"Structure (SMILES)": "O=C1CC[C@H](N2Cc3cc(-c4ccn5ncc(Br)c5n4)ccc3C2=O)C(=O)N1", "target": "Cereblon/Casein kinase I alpha (CSNK1A1/CRBN, Homo sapiens, UniProt P48729+Q96SW2)", "assay": "protein level, degrader, luciferase", "system": "MOLT-4", "quantity": "Dmax", "result": "86%"}
{"Structure (SMILES)": "CC(=O)NCCN(CC(=O)NCCN(CC(=O)NCCN(CC(=O)NCCC(N)=O)C(=O)C[C@@H](N)CCCNC(=N)N)C(=O)C[C@@H](N)Cc1ccccc1)C(=O)C[C@@H](N)Cc1ccccc1", "target": "HIV-1 TAR RNA", "conditions": "extrapolated to 1 M KCl", "quantity": "non-electrostatic ΔG°", "result": "-7.983 ± 0.0478 kcal/mol"}
{"Structure (SMILES)": "[123I]c1ccc2nc(-c3ccc(-n4ccnn4)nc3)cn2c1", "target": "Amyloid-beta precursor protein, amyloid-beta plaques (APP, Homo sapiens, UniProt P05067)", "assay": "saturation binding", "system": "Alzheimer's disease frontal cortex homogenate", "conditions": "one-site binding model", "quantity": "Bmax", "result": "1240 fmol/mg tissue"}
{"Structure (SMILES)": "N=C(N)NCCC[C@H](NC(=O)[C@H](Cc1ccccc1)NC(=O)[C@@H](N)CO)C(=O)N[C@@H](CC(N)=O)C(=O)NCC(N)=O", "target": "Neuropeptide S receptor (NPSR1, Homo sapiens, UniProt Q6W5P4)", "assay": "calcium mobilization, agonist", "system": "CHO-Galpha16", "conditions": "unit not given", "scale": "relative to: maximal assay window", "quantity": "maximal response", "result": 0.97}
{"Structure (SMILES)": "CCc1nc2cc3ccccc3cc2cc1C(=O)N[C@@H](CCCCN)C(=O)N[C@@H](C/C=C/C[C@H](NC(=O)[C@H](CCCCN)NC(=O)c1cc2cc3ccccc3cc2nc1CC)C(=O)N1CCC[C@H]1C(=O)NCCCN)C(=O)N1CCC[C@H]1C(=O)NCCCN", "target": "HIV-1 frameshift site RNA", "assay": "SPR", "quantity": "residence time", "result": "347 s"}
{"Structure (SMILES)": "O=c1c(O)c(-c2ccc(O)cc2O)oc2cc(O)cc(O)c12", "target": "ADP-ribosyl cyclase/cyclic ADP-ribose hydrolase 1 (CD38, Homo sapiens, UniProt P28907)", "assay": "hydrolase activity, fluorometric", "conditions": "50 µM, with: ε-NAD+ substrate", "scale": "relative to: untreated", "quantity": "remaining activity", "result": "87.2 ± 3.4%"}
{"Structure (SMILES)": "CCc1cc(C)nc2c(CC(=O)N(CC)CC)c(-c3ccc(OCC[18F])cc3)nn12", "target": "Translocator protein (Tspo, Rattus norvegicus, UniProt P16257)", "assay": "two-tissue compartment model", "system": "rat C6 glioma model, tumor", "conditions": "60 min dynamic PET", "quantity": "k2 efflux rate constant", "result": "5.33 ± 0.973 min⁻¹"}
{"Structure (SMILES)": "O=C(O)CCn1c2ccc(Cl)cc2c2cc(Cl)ccc21", "target": "Kcnk10 (Mus musculus, UniProt Q8BUW1)", "assay": "ion current, two-electrode voltage clamp", "system": "Xenopus oocytes", "quantity": "Hill coefficient", "result": "1 ± 0.4"}
{"Structure (SMILES)": "CN(C)c1ccc2c(c1)C(=O)N([C@H](CS)C(=O)O)C2=O", "target": "Metallo-beta-lactamase type 2 (Serratia marcescens, UniProt P52699)", "conditions": "10 µM, with: 3 equivalents protein, 10 µM ZnSO4", "quantity": "fluorescence increase", "result": "7.4 fold"}
{"note": "Excerpt of the above:"}
{"Structure (SMILES)": "N=C(N)NCCC[C@H](NC(=O)[C@H](Cc1ccccc1)NC(=O)[C@@H](N)CO)C(=O)N[C@@H](CC(N)=O)C(=O)NCC(N)=O", "target": "Neuropeptide S receptor (NPSR1, Homo sapiens, UniProt Q6W5P4)", "assay": "calcium mobilization, agonist", "system": "CHO-Galpha16", "conditions": "unit not given", "scale": "relative to: maximal assay window", "quantity": "maximal response", "result": 0.97}
{"Structure (SMILES)": "CCc1cc(C)nc2c(CC(=O)N(CC)CC)c(-c3ccc(OCC[18F])cc3)nn12", "target": "Translocator protein (Tspo, Rattus norvegicus, UniProt P16257)", "assay": "two-tissue compartment model", "system": "rat C6 glioma model, tumor", "conditions": "60 min dynamic PET", "quantity": "k2 efflux rate constant", "result": "5.33 ± 0.973 min⁻¹"}
